# Published values from different studies.
# A part holds a random share of what one study measured.
# UniProt Q02156, sequence (whole entry, looked up): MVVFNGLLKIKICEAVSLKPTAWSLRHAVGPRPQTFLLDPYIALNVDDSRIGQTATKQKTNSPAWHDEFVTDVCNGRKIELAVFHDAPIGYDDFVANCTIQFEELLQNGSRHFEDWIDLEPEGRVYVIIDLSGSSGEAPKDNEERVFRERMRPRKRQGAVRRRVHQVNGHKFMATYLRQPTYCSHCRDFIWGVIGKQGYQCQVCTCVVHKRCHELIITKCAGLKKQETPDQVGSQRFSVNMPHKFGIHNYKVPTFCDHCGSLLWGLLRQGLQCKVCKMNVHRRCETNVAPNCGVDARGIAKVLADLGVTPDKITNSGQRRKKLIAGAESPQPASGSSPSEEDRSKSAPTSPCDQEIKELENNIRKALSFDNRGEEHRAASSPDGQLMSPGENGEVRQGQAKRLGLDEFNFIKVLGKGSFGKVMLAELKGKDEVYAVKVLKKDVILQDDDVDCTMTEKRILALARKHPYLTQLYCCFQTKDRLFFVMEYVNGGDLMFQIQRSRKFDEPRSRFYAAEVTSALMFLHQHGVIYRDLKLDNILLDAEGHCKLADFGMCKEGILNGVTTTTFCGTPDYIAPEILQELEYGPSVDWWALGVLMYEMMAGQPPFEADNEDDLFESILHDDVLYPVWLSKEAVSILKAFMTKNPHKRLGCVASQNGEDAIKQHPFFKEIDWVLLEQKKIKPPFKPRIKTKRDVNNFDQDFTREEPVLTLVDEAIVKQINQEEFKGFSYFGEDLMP
# UniProt Q15569, sequence (whole entry, looked up): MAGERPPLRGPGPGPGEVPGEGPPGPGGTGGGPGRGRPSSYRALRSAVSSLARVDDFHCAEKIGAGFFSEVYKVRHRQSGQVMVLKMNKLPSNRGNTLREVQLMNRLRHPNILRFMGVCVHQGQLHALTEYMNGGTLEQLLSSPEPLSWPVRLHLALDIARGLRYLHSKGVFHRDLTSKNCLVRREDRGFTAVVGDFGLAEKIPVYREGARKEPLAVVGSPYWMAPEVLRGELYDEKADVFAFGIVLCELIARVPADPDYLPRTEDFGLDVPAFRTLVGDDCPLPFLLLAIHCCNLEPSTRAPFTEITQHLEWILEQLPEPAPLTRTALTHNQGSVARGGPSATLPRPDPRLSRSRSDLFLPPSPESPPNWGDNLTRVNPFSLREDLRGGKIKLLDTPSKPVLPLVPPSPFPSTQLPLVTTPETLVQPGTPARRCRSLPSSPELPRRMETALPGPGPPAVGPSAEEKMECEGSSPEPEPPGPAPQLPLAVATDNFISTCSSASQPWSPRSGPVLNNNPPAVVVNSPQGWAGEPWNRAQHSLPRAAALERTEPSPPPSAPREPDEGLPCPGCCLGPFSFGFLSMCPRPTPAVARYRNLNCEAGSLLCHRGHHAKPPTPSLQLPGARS
# UniProt P10721, sequence (whole entry, unmodified, looked up): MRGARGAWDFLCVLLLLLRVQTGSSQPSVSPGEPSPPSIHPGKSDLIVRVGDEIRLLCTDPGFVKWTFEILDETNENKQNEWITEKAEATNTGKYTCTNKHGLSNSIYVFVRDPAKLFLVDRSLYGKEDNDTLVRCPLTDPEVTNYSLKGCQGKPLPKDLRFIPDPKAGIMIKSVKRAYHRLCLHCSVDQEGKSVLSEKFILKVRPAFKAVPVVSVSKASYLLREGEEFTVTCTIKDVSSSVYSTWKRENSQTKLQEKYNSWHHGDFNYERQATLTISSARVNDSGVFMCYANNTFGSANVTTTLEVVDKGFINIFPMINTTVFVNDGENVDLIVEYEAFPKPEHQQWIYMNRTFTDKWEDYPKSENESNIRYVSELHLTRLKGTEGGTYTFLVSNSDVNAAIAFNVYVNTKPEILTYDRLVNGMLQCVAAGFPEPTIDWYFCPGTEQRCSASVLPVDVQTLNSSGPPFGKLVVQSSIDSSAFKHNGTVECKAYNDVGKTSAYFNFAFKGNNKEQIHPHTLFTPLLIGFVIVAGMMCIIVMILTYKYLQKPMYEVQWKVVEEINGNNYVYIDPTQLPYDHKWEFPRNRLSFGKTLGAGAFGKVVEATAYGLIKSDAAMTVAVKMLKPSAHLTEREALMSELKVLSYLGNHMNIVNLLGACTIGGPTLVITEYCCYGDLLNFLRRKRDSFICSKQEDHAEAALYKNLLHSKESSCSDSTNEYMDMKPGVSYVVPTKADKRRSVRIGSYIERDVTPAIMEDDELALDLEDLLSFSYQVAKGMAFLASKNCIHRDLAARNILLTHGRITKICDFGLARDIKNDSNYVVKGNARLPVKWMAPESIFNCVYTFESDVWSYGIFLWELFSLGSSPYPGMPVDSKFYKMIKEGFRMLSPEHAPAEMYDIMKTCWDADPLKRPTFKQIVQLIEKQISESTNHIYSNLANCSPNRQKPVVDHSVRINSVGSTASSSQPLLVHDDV
# UniProt Q9UK32, sequence (whole entry, looked up): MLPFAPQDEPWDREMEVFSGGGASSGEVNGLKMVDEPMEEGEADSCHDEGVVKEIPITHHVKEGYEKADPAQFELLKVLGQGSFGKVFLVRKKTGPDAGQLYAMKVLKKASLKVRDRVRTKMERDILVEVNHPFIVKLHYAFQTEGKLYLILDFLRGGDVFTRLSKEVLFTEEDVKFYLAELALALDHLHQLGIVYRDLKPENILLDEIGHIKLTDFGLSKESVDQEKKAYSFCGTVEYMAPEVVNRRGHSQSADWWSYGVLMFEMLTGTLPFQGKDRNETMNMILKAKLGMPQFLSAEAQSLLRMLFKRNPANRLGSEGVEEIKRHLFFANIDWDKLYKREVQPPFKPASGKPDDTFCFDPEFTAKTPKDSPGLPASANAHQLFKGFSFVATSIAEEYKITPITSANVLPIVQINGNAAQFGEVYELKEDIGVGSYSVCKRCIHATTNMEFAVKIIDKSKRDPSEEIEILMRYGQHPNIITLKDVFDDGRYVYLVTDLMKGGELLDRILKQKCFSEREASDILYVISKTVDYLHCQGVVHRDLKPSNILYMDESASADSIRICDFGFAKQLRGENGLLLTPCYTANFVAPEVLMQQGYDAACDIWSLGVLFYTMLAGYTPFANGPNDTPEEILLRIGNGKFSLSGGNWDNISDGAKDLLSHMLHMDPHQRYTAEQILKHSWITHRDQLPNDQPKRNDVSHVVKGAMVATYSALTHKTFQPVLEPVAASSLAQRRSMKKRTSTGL
# UniProt Q8IVW4, sequence (whole entry, looked up): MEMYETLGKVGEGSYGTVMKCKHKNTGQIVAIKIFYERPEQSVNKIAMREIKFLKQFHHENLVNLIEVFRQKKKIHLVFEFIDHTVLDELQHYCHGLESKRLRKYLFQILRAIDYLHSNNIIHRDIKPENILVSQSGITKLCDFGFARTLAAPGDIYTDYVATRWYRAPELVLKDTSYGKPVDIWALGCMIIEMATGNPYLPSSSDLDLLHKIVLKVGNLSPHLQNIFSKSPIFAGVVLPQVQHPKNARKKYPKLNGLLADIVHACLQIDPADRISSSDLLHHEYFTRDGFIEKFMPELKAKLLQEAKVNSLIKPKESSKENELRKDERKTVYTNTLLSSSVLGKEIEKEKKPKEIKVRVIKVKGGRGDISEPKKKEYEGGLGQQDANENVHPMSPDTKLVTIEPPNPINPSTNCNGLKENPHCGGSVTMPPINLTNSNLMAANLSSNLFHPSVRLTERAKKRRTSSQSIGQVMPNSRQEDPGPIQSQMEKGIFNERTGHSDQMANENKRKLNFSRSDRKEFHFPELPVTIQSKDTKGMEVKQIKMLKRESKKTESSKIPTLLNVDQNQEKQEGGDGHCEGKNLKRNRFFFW

# Study 1 — effect on: AlphaScreen signal; method: AlphaScreen counter screen; medium: His6 peptide without bromodomain; concentration: 50 µM; notes: assay interference check
Compound,inhibition
O=C1Nc2ccccc2C1=C1Nc2ccccc2C1=NO,83.7%
CCOc1cc(C=C(C#N)C(N)=O)cc(CSc2ccccc2)c1O,30.7%
O=C1NC(=S)SC1=Cc1ccc(-c2ccccc2Cl)o1,12.6%
Cc1ccc(NC(=O)c2snc3c(=O)[nH]cnc23)cc1,25.8%
Fc1ccc(Nc2ncc3c(n2)CCNC3)cc1,13.1%
C[C@]1(O)C[C@@H](c2nc(-c3ccc4ccc(-c5ccccc5)nc4c3)c3c(N)nccn32)C1,41.5%

# Study 2 — method: competition with immobilised ligand; concentration: 1 µM
# SMILES: Cc1nc(C2CCN(C(=O)c3ccc(OC(F)(F)F)cc3N)CC2)c2ncc(N3CCN(C)CC3)cc2n1
target,effect on,remaining binding
"KIT (Homo sapiens, UniProt P10721, V559D)",cell-free assay,93%
"CDKL3 (Homo sapiens, UniProt Q8IVW4)",cell-free assay,92%
"Tyrosine-protein kinase ABL1, non-phosphorylated (ABL1, Homo sapiens, UniProt P00519, F317I)",binding,100%
"Ribosomal protein S6 kinase alpha-6, N-terminal kinase domain (RPS6KA6, Homo sapiens, UniProt Q9UK32)",cell-free assay,100%
"PRKCE (Homo sapiens, UniProt Q02156)",cell-free assay,100%
"ACVRL1 (Homo sapiens, UniProt P37023)",cell-free assay,91%
"MUSK (Homo sapiens, UniProt O15146)",cell-free assay,100%
"Tyrosine-protein kinase ABL1, phosphorylated (ABL1, Homo sapiens, UniProt P00519, H396P)",cell-free assay,89%
"PRKCI (Homo sapiens, UniProt P41743)",cell-free assay,81%
"PDGFRA (Homo sapiens, UniProt P16234)",cell-free assay,100%
"TESK1 (Homo sapiens, UniProt Q15569)",cell-free assay,100%

# Study 3 — effect on: enzyme activity; action: inhibitor; concentration: 0.5 µM; relative to: control
# Target: Ephrin type-A receptor 8 (EPHA8, Homo sapiens, UniProt P29322)
# UniProt P29322, sequence (whole entry, looked up): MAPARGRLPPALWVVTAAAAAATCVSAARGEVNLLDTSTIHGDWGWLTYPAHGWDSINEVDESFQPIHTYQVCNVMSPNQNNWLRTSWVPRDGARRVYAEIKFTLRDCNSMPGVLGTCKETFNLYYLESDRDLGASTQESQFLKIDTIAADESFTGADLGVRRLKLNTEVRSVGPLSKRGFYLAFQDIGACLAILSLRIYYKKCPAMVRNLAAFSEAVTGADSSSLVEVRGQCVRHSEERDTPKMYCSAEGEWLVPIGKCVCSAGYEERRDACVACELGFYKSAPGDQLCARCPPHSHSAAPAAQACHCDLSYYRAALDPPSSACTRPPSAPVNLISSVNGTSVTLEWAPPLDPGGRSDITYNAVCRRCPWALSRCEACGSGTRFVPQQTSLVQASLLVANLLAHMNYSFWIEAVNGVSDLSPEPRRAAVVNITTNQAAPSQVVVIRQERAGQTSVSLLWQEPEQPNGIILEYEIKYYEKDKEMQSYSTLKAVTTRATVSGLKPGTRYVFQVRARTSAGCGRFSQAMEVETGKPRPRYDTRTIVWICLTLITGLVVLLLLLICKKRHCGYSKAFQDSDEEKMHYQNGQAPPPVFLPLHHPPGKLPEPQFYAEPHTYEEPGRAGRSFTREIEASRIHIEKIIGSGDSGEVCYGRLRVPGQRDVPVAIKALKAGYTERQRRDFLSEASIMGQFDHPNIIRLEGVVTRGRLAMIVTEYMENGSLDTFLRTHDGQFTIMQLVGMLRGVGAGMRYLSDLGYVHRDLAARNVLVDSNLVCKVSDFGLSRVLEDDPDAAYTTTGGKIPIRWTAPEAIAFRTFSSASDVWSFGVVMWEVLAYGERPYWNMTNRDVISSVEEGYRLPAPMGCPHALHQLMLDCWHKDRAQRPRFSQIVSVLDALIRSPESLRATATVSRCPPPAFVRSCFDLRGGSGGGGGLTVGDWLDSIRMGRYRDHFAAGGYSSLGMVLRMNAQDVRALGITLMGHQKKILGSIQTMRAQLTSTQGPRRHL
Structure (SMILES),remaining activity [%]
NC(=O)c1cccc(-c2cc(Nc3ccc(OC(F)(F)F)cc3)ncn2)c1,94.5
CC(C)n1cnc2c(Nc3cccc(Cl)c3)nc(NCCO)nc21,98.2
C[C@@H](N)[C@H]1CC[C@H](C(=O)Nc2ccncc2)CC1,91.4
CC(C)(C)c1nc2c3cc[nH]c(=O)c3c3cc(F)ccc3c2[nH]1,105
FC(F)(F)c1ccc(/C=C/c2nc(COc3ccc(CCCCn4ccnn4)cc3)co2)cc1,104
CCN(CC)CCCCN1c2ccccc2Oc2ccc(Cl)cc21,102
CCCCc1c(-c2ccc(O)cc2)[nH]c2nccnc12,97.4
O=C(O)/C=C/c1cc(Br)c(Br)c(Br)c1Br,99.1
O=c1c(-c2ccc(F)cc2)c(-c2ccncc2)[nH]n1-c1ccc(Cl)cc1,94.4
O=C1NC(=O)/C(=C/c2ccc3c(c2)OC(F)(F)O3)S1,93.8
O=C1c2ccccc2-c2nc3nnnn3nc21,92.6
CC(C)N(CCC(=O)c1ccc2ccccc2c1)Cc1ccccc1,95.9

# Single results of other studies
SMILES,host,dose,notes,endpoint,result
CC(C)n1cnc(-c2ccc(F)cc2)c1-c1ncc(C(=O)Nc2ccc(N3CCN(C)CC3)cc2)[nH]1,"human, idiopathic pulmonary fibrosis",60 mg once daily,"trial, treatment-emergent",patients with supraventricular extrasystoles,0%

# Some of these lines once more (study 2):
target,effect on,remaining binding
"PDGFRA (Homo sapiens, UniProt P16234)",cell-free assay,100%
"Ribosomal protein S6 kinase alpha-6, N-terminal kinase domain (RPS6KA6, Homo sapiens, UniProt Q9UK32)",cell-free assay,100%
"KIT (Homo sapiens, UniProt P10721, V559D)",cell-free assay,93%
"PRKCE (Homo sapiens, UniProt Q02156)",cell-free assay,100%
